Experimental data from different studies.
Numbered parts are unrelated; each lists some results of a single study. Substitutions count along the parent as printed.

Set 1
Target: RNA binding protein fox-1 homolog 2, RRM domain, GST-SBP tag (RBFOX2, Homo sapiens, UniProt O43251-10, residues 100-194)
Technique: RNA Bind-n-Seq
Molecule type: RNA
Matrix: in vitro
Tested at: 365 nM
Setting: natural RNA segment, single round, ends assumed
Relative to: no-protein control
Reading: higher = stronger binding
Constant ends, left off below: GGGAGUUCUACAGUCCGACGAUC … UGGAAUUCUCGGGUGCCAA
Construct (chain): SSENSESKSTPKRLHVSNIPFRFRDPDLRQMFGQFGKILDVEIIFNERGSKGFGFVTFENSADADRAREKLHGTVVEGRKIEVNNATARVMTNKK
Sequence	RBNS enrichment (R)
CCACAGGCCUGAUUUUUAUAAAAAACUACCAAUGCUGAUCAAUAAAGUGGGUUUUUUUUAUAGCUUGGGUGUGGGCUGUGUUUGGGGGUGUAUAUAACACCUGUCCUGAG	0.286
GAUGUAUUCGGUGUAGCUGAGGUCACUUUGGAAGUCUGUGGCUGUUCCAUGUCCUAGGCAAGCCACUUGUUAACCCUGAGUGACAAUCUUUAUAAAUCAUUGUUAAUUCA	0.381
AACCUUAUGAGCAGUGUACAAAUAUCAUGAGACAACUGAUCAGCACUUGCACCUGAUCAAGAGCAGUGCUGCUCCAUUUGUUUUGCAAAGAUAUGUUUUCAUUUCCUGUA	0.329
AACCCUGGCUGGACUGGAGCUCAGUGUAUAGACCAGGCUAGUCUCAAACUCUGCCUCUUCCUCCCAAGUGCUGGGAUUAAGGGCAGGUACCAUAGUGCUCAGCAACCACA	0.518
UUUACUGCACUUCACAAGGUUCUAAGAUGUGGAGAGUUCACUUGGAUUGCAGUAGCCCAUUGGUUGUUCAUAUAUUUAAAUAAAAUGGUCUACAAACUAUUUUUCAAACA	0.992
AAUCACCAGCAGGAGGGUCUGCCUGCCACUGGGAGCCUUGGGGAGGCUGGGAGCCUUAGAGAAACGCAAGCUCACGCCUUCAUAAAUAUGCAGUUUCCUGCUUUCUGCCC	0.558
UCAACUGGCCAGGCAGGGUGGCUCACGCCUGUACUCCCAGCAUUUUGUGAGGCCAAGGUGGGUGGAUCACCUGAGGUCAGGAGUUUGAGACCAGCCUGACCAAACAUGGC	3.65
CUAAGUUGCCCUGACUGGCCUUCAGCUGGCCUUACCCACUUCUUCAGUUACCCUGAACAUGGGGAGUGCAUCACGAUAGGGUGUGGCUGACCUCCAUUGCUUACCUGCCU	0.359
CCUAAGCUAACCACACGUGUGUAUCUCAAGGGACUUAAAUUCAGCUGUCUGUAGUGAAUUCAAGUGGGAAAUUUUCAAAAGUUUCUCCUGCUGGAAAUAAGGUAUAAUUU	0.368
GUGUCAGACUGUGCCUACUCUGAUGGUAUGUGCCAUUUGUAAAAUAAAAUAGAGCAGAAAAACACAAAAAGAGAACACUGGUUCAGACAUUCAGUGGGCAAGUAAAUUAU	0.599
ACCGCUUUCAAUACACAAUUAGUAAUCAACUGUUUUGUAUACUUGUUUUCAGUUUUCAUUUCGACAAGCACUGUAAUUAUAGCUGUUAGAAUAAAGUCUCUUAACUAUUU	0.274
UAAAAUAAUUUGCUAACUAACUAUUUUGAUUCUUCAGAGAGAACUACUAAUAAAAAUCUAAAAGGUAUGUCUUGGUGUGAUAACUUCUUUAUUACCAAGGCUGUUUUAUG	0.527

Set 2
Target: Histone acetyltransferase KAT6A, winged helix 1, GST fusion (KAT6A, Homo sapiens, UniProt Q92794, residues 1-85)
Technique: protein binding microarray
Molecule type: double-stranded DNA, one strand shown
Matrix: in vitro
Tested at: not given
Setting: 8-mer, flanks averaged, mean of 2 arrays, mostly near background
Relative to: not given
Reading: higher = stronger binding
Construct (chain): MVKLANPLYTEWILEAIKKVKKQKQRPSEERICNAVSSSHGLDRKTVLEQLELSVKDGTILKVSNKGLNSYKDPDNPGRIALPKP
Sequence	E-score
CAATTGGA	-0.121
AAAGAGGA	-0.299
AATGGTCT	-0.159
GCGCGCGC	0.48
AATAAATA	-0.113
CAGTCGAA	-0.131
GGCGTGTA	0.133
ATGTCCTA	0.0437
ATTACGGG	0.27
AAATTTTC	-0.267
AGGCTTCG	0.0681
AGTTTCTA	-0.152
TAAAATGA	-0.223
CTAAATGA	-0.139
CCCTCCTA	-0.113
CGGTCGAG	0.114
ATCCGAGG	-0.016
GTCTGGTA	-0.179
CAAACACA	-0.231
GACTGCTC	-0.0787
TCTACGCA	-0.0102
CGAGCTTC	-0.0265
ATTTACGC	0.0995
AGTATTTC	-0.0324
CAAGCCCC	-0.0801

Set 3
Target: Interferon regulatory factor 7, full length, phosphomimetic (IRF7, Homo sapiens, UniProt Q92985, residues 1-503, S471D/S472D/S475D/S476D/S477D/S483D/S484D/S487D)
Technique: protein-binding microarray
Molecule type: double-stranded DNA, one strand shown
Matrix: in vitro
Tested at: 2200 nM top
Setting: 60-bp whole probe
Added: salmon DNA 0.4 mg/ml
Relative to: random background probes
Reading: higher = stronger binding
Constant ends, left off below: GCCTAGCAC … GTCTTGATTCGCTTGACGCTGCTG
Construct (chain): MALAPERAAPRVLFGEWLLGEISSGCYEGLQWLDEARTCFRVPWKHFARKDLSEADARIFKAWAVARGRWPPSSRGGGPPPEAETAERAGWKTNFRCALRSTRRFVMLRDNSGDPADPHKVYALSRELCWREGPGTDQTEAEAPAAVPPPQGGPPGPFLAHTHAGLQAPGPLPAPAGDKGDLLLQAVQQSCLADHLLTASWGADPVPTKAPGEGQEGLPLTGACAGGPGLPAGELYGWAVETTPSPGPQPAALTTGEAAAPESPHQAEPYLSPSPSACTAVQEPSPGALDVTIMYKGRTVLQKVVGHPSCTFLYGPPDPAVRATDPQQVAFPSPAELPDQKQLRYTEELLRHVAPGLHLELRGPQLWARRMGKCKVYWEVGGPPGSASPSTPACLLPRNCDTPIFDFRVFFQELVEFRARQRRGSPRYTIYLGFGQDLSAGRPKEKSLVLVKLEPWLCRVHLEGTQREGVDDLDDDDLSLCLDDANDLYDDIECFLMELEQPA
Sequence	fitted relative affinity
GACGGAGTGGGGTATCGGGACGTGCTA	-0.697 z-score
TCAATCTTAGATATTAAACTGTGCTAG	-0.217 z-score
TTTGCTTTCTTTTATGCTCTGTGCTAG	2.75 z-score
GACAACTGATATCAAAGGGAGTGCTAG	-0.0646 z-score
TTAGGACTGGGGACTGGGTGAGTGCTA	-0.895 z-score
GACGGACCGGGGTTTCGGGACGTGCTA	0.243 z-score
TCAATTATTGTCTTCCCACTGTGCTAG	1.46 z-score
TTAGGTTTCGACTATCGGTTCGTGCTA	4.17 z-score
TGTTGTCTTAGATTCCTTTGGTGCTAG	1.28 z-score
TTGCATCTGGGTATTTTTCTGTGCTAG	1.14 z-score
TTAGAACTGAGTCTCGAGTAGTGCTAG	-0.422 z-score
GACGGACTGGGGTCTGGGGACGTGCTA	-0.8 z-score
TCAAATTTTCATTTTCCACTGTGCTAG	4.3 z-score
TCAATTCTCTGCTTGGGACTGTGCTAG	0.981 z-score
TTAGATATCGGGAATGGATTAGTGCTA	-0.387 z-score
TCAAGTATGACTCTGCCACTGTGCTAG	0.557 z-score
GACGAACTGAGTCTCGAGGCGTGCTAG	-0.0924 z-score
GACGATTTCAGTCTAGAGACGTGCTAG	0.625 z-score
TTCGATTTCAGTTTCGATTAGTGCTAG	8.64 z-score
GACGAACTTGGGTATCGAGACGTGCTA	-0.253 z-score
AGACACCCCTTTGGTGCCACGTGCTAG	0.684 z-score
TCAGGTCTCCCTTGAGGACTGTGCTAG	0.13 z-score
GTCGATCTCAGTATCGAGACGTGCTAG	0.512 z-score
GACGGTTCCCTTTGCCTGACGTGCTAG	1.55 z-score
GACGAACTGGGGTTTCGATACGTGCTA	2.05 z-score

Set 4
Target: CCNE1, cyclin fold, Cln2 fusion (human)
Technique: yeast growth competition, sequencing
Matrix: yeast
Setting: strong parent motif
Relative to: not given
Reading: higher = stronger binding
Starting sequence: INSM1 docking peptide (human); PKAIRKLHFEDEV; partner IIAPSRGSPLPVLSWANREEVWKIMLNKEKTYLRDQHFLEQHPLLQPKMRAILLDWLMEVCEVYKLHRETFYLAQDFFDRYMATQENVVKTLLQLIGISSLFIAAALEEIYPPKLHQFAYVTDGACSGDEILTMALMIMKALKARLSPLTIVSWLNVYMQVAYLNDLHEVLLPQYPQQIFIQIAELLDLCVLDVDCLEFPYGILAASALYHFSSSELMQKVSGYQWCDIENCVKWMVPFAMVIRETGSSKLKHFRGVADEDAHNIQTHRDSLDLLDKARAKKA
Substitution	normalised enrichment score
PCAIRKLHFEDEV [K2C]	4.51
PKVIRKLHFEDEV [A3V]	5.76
PKQIRKLHFEDEV [A3Q]	0.308
PKAIRKLHFEKEV [D11K]	1.6
PKAIRKLRFEDEV [H8R]	3.21
PKAICKLHFEDEV [R5C]	0.55
PKAIRLLHFEDEV [K6L]	1.13
PKAIRKLHEEDEV [F9E]	0.0726
PKAIDKLHFEDEV [R5D]	0.151
PKAIMKLHFEDEV [R5M]	0.831
PKAIRKLHFRDEV [E10R]	1.53
PKAIFKLHFEDEV [R5F]	-0.0157
PKAIRKLHFEDAV [E12A]	4.25
PKAIKKLHFEDEV [R5K]	1.62
PKAIRKYHFEDEV [L7Y]	0.158
PVAIRKLHFEDEV [K2V]	2.97
PKAIRKLHFMDEV [E10M]	2.59
PKADRKLHFEDEV [I4D]	0.0515
PKAIRKLIFEDEV [H8I]	5.96

Set 5
Target: Centromere-binding protein 1, full length, His-tagged (CBF1, Saccharomyces cerevisiae, UniProt P17106, residues 1-351)
UniProt P17106, sequence (whole entry, looked up): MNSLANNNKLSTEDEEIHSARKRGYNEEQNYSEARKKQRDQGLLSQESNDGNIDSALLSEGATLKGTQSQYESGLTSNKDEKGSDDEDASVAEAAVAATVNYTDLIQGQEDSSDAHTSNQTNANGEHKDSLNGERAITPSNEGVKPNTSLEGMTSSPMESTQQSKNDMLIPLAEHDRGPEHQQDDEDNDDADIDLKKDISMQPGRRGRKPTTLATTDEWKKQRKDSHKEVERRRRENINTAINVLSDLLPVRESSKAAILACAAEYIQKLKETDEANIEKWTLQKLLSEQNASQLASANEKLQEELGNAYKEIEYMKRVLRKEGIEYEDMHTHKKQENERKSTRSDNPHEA
Technique: competition protein-binding microarray
Molecule type: double-stranded DNA, one strand shown
Matrix: in vitro
Tested at: 2 µM
Setting: whole 60-bp probe, lowest competitor level
Added: Pho4 competitor, 0.05 µM
Reading: higher = stronger binding
Constant ends, left off below: … GTCTTGATTCGCTTGACGCTGCTG
Sequence	fluorescence intensity
CTTCTGTAAATTTTTCACGTGCACTGACGCGCCCCG	1040 a.u.
CGAATCAGGTTTCCCAACGTGTGGACCTCCTTCTCA	70 a.u.
AATTTCTTCAGGACTTGCAAAAAGAATCTAACTGAT	80.4 a.u.
CGTCCTAGCGATTGATCTGTGGGTGCCATGAGGAAG	71.7 a.u.
AACCAATACCACCGTCACGTGTTTTCAAGAAAGAAG	5550 a.u.
ATCTGTGGGGGCACCAGCGTGACGGGGACGGTTCTA	118 a.u.
AAATTACTAAGTTGTCACACTACTTACCCCGTATGA	102 a.u.
CGAAGATTGCCGCGATCCGTGACTCGAAGCTACACC	101 a.u.
TTGGCGTTTGACTGTCACAGTCCCAAATCCTTGCAG	63.5 a.u.
GTCTTGTCTCATTGATACGTGGGTGTCCCCACTTCA	91.9 a.u.
CTATCTTCAAAGGTTGTCGTGCCGATGTTGTAATGG	73.9 a.u.
GTCCGCTTACGTCTGTGCGTGCGGATTGTCCCACAA	56.5 a.u.
AGATATACACGATCGCACATGGTTCCAAGACGGTTA	106 a.u.
AGGAAGAAAGAGCTGCTCGTGTTGGTGCCAAGATCG	62.1 a.u.
CATACCCAACCTTTTCACGTGGAATAAGATATTTGT	656 a.u.
CTTCTGTAAATTTGTAGCGTGGGTGGACGCGCCCCG	80.7 a.u.
GCTCATTCCACCTCACACCTGATTAACTAAAAGTTT	211 a.u.
CGTCCTAGCGATTGAGTAGTGGGTGCCATGAGGAAG	70 a.u.
CAACAATATACCCAACACGTGGATTTGCCAGCCTGT	810 a.u.
AAGAGCGTAAGCTTGCTCGTGGTGAGAAGGGAACTA	68.9 a.u.
CTAAGAAGATTGCTCAACGTGAAATACTTGCTGCTT	82.9 a.u.
AAATTACTAAGTTGGACCGTGGGTGACGCCGTATGA	57.7 a.u.
AGTACAGTCTTGGACAATGTGACAGGGACCCTTGAA	79.1 a.u.
TGCGCAACAACTTGATTAGTGGGTGTATGTCTAGAA	70.9 a.u.
ATTAGTAATAGCCATCACGTGATGGTCCCTGGAAAG	12100 a.u.

Single results of other studies
Substance	target	assay	system	conditions	scale	quantity	result
PhoQ, residues 284 288 289 292 302 303 HSSMNL	PhoP, residues 12 14 15 18 19 VQALL (Escherichia coli, UniProt P23836)	Sort-seq, item: YFP reporter	E. coli	PhoQ-PhoP variant library, added: 10 µM Mg2+	relative to: high Mg2+ state, higher = stronger signaling	fold induction	10.8

Excerpt of the above (set 5):
Sequence	fluorescence intensity
CGAAGATTGCCGCGATCCGTGACTCGAAGCTACACC	101 a.u.
TTGGCGTTTGACTGTCACAGTCCCAAATCCTTGCAG	63.5 a.u.
GTCTTGTCTCATTGATACGTGGGTGTCCCCACTTCA	91.9 a.u.
CTATCTTCAAAGGTTGTCGTGCCGATGTTGTAATGG	73.9 a.u.
GTCCGCTTACGTCTGTGCGTGCGGATTGTCCCACAA	56.5 a.u.
AGATATACACGATCGCACATGGTTCCAAGACGGTTA	106 a.u.
AGGAAGAAAGAGCTGCTCGTGTTGGTGCCAAGATCG	62.1 a.u.
CATACCCAACCTTTTCACGTGGAATAAGATATTTGT	656 a.u.
CTTCTGTAAATTTGTAGCGTGGGTGGACGCGCCCCG	80.7 a.u.
GCTCATTCCACCTCACACCTGATTAACTAAAAGTTT	211 a.u.
CGTCCTAGCGATTGAGTAGTGGGTGCCATGAGGAAG	70 a.u.
CAACAATATACCCAACACGTGGATTTGCCAGCCTGT	810 a.u.
AAGAGCGTAAGCTTGCTCGTGGTGAGAAGGGAACTA	68.9 a.u.
